Results from different studies.
Lines come from different studies, so protocols differ.

SMILES	test	test system	setting	NOAEL
CC[C@H](C)[C@H](NC(=O)[C@H](C)NC(=O)[C@H](CCCCN)NC(=O)[C@H](CC(C)C)NC(=O)[C@H](C)NC(=O)[C@@H](NC(=O)[C@H](Cc1c[nH]cn1)NC(=O)[C@H](CC(C)C)NC(=O)[C@@H](NC(=O)[C@@H](NC(=O)[C@H](CCCCN)NC(=O)[C@H](C)NC(=O)[C@H](C)NC(=O)[C@H](CO)NC(=O)[C@H](CCCCN)NC(=O)[C@H](Cc1ccccc1)NC(=O)[C@@H](NC(=O)[C@H](CCCCN)NC(=O)[C@H](CC(C)C)NC(=O)[C@H](Cc1ccccc1)NC(=O)[C@H](CO)NC(=O)[C@H](CCCCN)NC(=O)[C@H](Cc1c[nH]c2ccccc12)NC(=O)[C@H](CCCCN)NC(C)=O)[C@@H](C)O)[C@@H](C)O)C(C)C)[C@@H](C)O)C(=O)N[C@@H](CO)C(=O)N[C@@H](CO)C(N)=O	–	Sprague-Dawley rat	transdermal, 30 days, once daily	1.5 mg/cm2
C=CC(=O)N1CCCN(C(=O)c2cc(Sc3cnc(NC(=O)C4CC4)s3)c(C)cc2OC)C[C@H]1C	–	Sprague-Dawley rat	oral, 28 days, 28 daily doses, GLP	> 1000 mg/kg/day
Cn1nccc1[C@]1(CNC(=O)c2ccc(F)c(F)c2-c2ccc(C(F)(F)F)cc2)NC(=O)NC1=O	–	rat	oral, two weeks, daily gavage	50 mg/kg body weight
Cc1cc(C)nc(Nc2ncc(C(=O)NCCc3c(C)[nH]c4ccccc34)cn2)c1	–	female rat	oral, 7 days	500 mg/kg
CC(C)CC(=O)OC[C@H]1O[C@@](C#N)(c2ccc3c(N)ncnn23)[C@H](O)[C@@H]1O	–	Sprague-Dawley rat both sexes	oral, respiratory and CNS safety pharmacology	400 mg/kg/day
C[C@H]1CN(C(=O)CC#N)[C@]12CCN(c1ncnc3[nH]ccc13)C2	–	rat, female	oral, 6 months, repeated dosing	10 mg/kg
CC(=O)N[C@H]1CC[C@H](NC(=O)CN2CCN(c3nncc(-c4ccc(C)cc4)n3)CC2)CC1	–	rats	–	150 mg/kg/day
COc1ccnc(C(=O)N[C@H]2COC(=O)[C@H](Cc3ccccc3)[C@@H](OC(=O)C(C)C)[C@H](C)OC2=O)c1OCOC(=O)C(C)C	neurotoxicity	rat	90 day, repeated dose	732 mg/kg/day
CCOC(=O)COc1ncccc1Oc1cc(-n2c(=O)cc(C(F)(F)F)n(C)c2=O)c(F)cc1Cl	–	Crl:CD(SD) rats, male	dietary, 90 days	50 ppm in diet
Cc1cnc(N2CC3(CCOCC3)C2)c(C(=O)Nc2ccc(C(=O)N3CCc4cc(C(=O)Nc5c(C)cccc5F)sc4-c4ccccc43)cc2)c1	–	rat	inhalation, 14 days	15.8 mg/kg/day
